Published values gathered from unrelated publications.
Each line is one published result; not all experiments were run side by side. Numbers after ± are the reported error.

CC[C@H](C)[C@H](NC(=O)[C@H](CC(C)C)NC(=O)[C@H](Cc1c[nH]c2ccccc12)NC(=O)[C@H](C)NC(=O)[C@@H](NC(=O)[C@H](Cc1ccccc1)NC(=O)[C@H](CC(=O)O)NC(=O)[C@H](CCCNC(=N)N)NC(=O)[C@H](C)NC(=O)[C@H](C)NC(=O)[C@H](CC(C)C)NC(=O)[C@H](C)NC(=O)[C@H](CC(=O)O)NC(=O)[C@H](CC(C)C)NC(=O)[C@@H](NC(=O)[C@@H](NC(=O)[C@H](C)NC(=O)[C@H](CC(C)C)NC(=O)[C@H](CCC(=O)O)NC(=O)[C@H](CO)NC(=O)[C@H](CO)NC(=O)[C@H](Cc1ccccc1)NC(=O)[C@@H](NC(=O)CNC(=O)[C@H](CCC(=O)O)NC(=O)CNC(=O)[C@@H](N)Cc1c[nH]cn1)[C@@H](C)O)[C@@H](C)O)[C@@H](C)CC)[C@@H](C)CC)C(=O)N[C@@H](C)C(=O)N[C@H](C(=O)N[C@@H](CCCCN)C(=O)N[C@H](C(=O)N[C@H](C(=O)N[C@@H](CC(=O)O)C(=O)N[C@@H](CCCCN)C(=O)N[C@@H](CCCCN)C(=O)O)[C@@H](C)O)[C@@H](C)CC)[C@@H](C)O
AUClast (immunoaffinity LC-MS/MS; healthy human subjects, plasma; intravenous infusion, 1 mg single dose, infused over 15 min): 0.782 nM·h

COC(=O)[C@H](CSSC[C@H](NC(=O)[C@H](Cc1ccccc1)NC(=O)[C@H](Cc1ccccc1)NC(=O)OC(C)(C)C)C(=O)OC)NC(=O)[C@H](Cc1ccccc1)NC(=O)[C@H](Cc1ccccc1)NC(=O)OC(C)(C)C
particle size (HR-SEM; 100% aqueous medium; 2 mg/mL, hollow sphere assemblies): 279 ± 13.7 nm

CCCC(CCC)NC(=O)c1ccc(OC2OC(C(=O)O)C(O)C(O)C2O)c(OC)c1 (stereo not shown)
Cmax ratio (female Sprague-Dawley rats, plasma; oral, 200 mg/kg of parent drug; reference: 200 over 20 mg/kg dose): 4.24

CC(C)CCN(Cc1ccc(F)cc1)c1nc(C#N)nc(N2CCOCC2)n1
plasma concentration (female CD-1 mice; intraperitoneal, 10 mg/kg, 7 h): 3.1 ng/mL

CCCC[C@H](NC(=O)CNC(=O)CNC(=O)CN1CCN(CC(=O)O)CCN(CC(=O)O)CCN(CC(=O)O)CC1)C(=O)N[C@H]1CC(=O)NCCCC[C@@H](C(N)=O)NC(=O)[C@H](Cc2c[nH]c3ccccc23)NC(=O)[C@H](CCCNC(=N)N)NC(=O)[C@@H](Cc2ccccc2)NC(=O)[C@H](Cc2c[nH]cn2)NC1=O [copper-64 labelled]
uptake ratio (female C57 mouse, B16/F1 melanoma; intravenous, 0.037 MBq, 0.5 h; reference: tumour over lung): 1.49

Oc1cccc(-c2cccc(O)n2)n1.[Cl-].[Cl-].[Ru+2].c1cnc2c(c1)c1c(c3cccnc32)OCCO1.c1cnc2c(c1)c1c(c3cccnc32)OCCO1
logD (shake flask; octanol/phosphate buffer; pH 6.00): 1.45

Cn1c(=O)oc2ccc(-c3ccc(CC(C#N)NC(=O)C4CNCCCO4)c(F)c3)cc21 (stereo not shown)
ALT increased incidence (human; oral, 40 mg once daily, treatment-related AE, multiple ascending dose): 0%

C=CCc1ccc(O)c(-c2cc(CC=C)ccc2OCCCCCCCCCC[P+](c2ccccc2)(c2ccccc2)c2ccccc2)c1
glucose level (C57BL/6 mouse, non-tumour-bearing, serum; dose not given, day 31): 160 ± 18.6 mg/dL

N=C(N)NCCC[C@@H]1NC(=O)[C@H](Cc2c[nH]c3ccccc23)NC(=O)[C@@H](CC2CCCCC2)NC(=O)[C@@H]2CCCN2C(=O)[C@@H](NC(=O)CCc2ccccc2)CCCNC1=O
redistribution rate constant (K21) (C57BL/6J mouse, spinal cord; oral, 1 mg/kg, single dose, two-compartment model): 0.33 h⁻¹

NCCCC(=O)OCC(=O)c1cc(F)c(O)cc1F.O=C(O)C(F)(F)F
quantum yield (photolysis, refers to: rearranged acid appearance; unbuffered water): 0.2

C[C@H](Oc1cc(-c2cnn(C3CCN(CC[18F])CC3)c2)cnc1N)c1c(Cl)ccc(F)c1Cl
tracer uptake (PET imaging; nude mouse, liver; iv, 10 min post injection): 7.1 ± 1 %ID/cc

CCCOc1ccc(S(N)(=O)=O)cc1-c1nc2c(CCC)nn(C)c2c(=O)[nH]1
terminal half-life (healthy male humans, plasma; oral, 200 mg udenafil): 11.8 ± 3.74 h

Cc1[nH]c(/C=C2\C(=O)Nc3ccc(F)cc32)c(C)c1NC(=O)CCN1CCN(C)CC1
accuracy deviation (dog plasma; 40 ng/mL, 24 h in injector after processing, 4 °C): -9.72%

O=C([O-])CN1CCN(CC(=O)[O-])CCN(C(CCC(=O)NCCCCCN(CCCC[C@H](NC(=O)N[C@@H](CCC(=O)O)C(=O)O)C(=O)O)C(=O)c2ccc(I)cc2)C(=O)O)CCN(CC(=O)[O-])CC1.[68Ga+3] (stereo partly shown)
safety and tolerability (healthy volunteers and patients; dose not given): not toxic

Nc1ncnc2c1nc(-n1nnc3c1CCC1C(CO)C1CC3)n2C1OC(CO)C(O)C1O (mixture of isomers)
brightness (methanol): 0.13 M⁻¹ cm⁻¹

CC(C)[C@H](NC(=O)CNC(=O)[C@H](CCC(N)=O)NC(=O)[C@H](C)N)C(=O)O
CL (human, plasma; intravenous infusion, 15 mg/kg/h, 2 h infusion, geometric mean): 900 mL/min/kg

CC(=O)N[C@H](CC(=O)O)C(=O)N[C@H](Cc1c[nH]c2ccccc12)C(=O)N[C@H](Cc1ccccc1)C(=O)N[C@H](CCCCN)C(=O)N[C@H](C)C(=O)N[C@H](Cc1ccccc1)C(=O)N[C@H](Cc1ccc(O)cc1)C(=O)N[C@H](CC(=O)O)C(=O)N[C@H](CCCCN)C(=O)N[C@@H](C(=O)N[C@H](C)C(=O)N[C@H](CCC(=O)O)C(=O)N[C@H](CCCCN)C(=O)N[C@H](Cc1ccccc1)C(=O)N[C@H](CCCCN)C(=O)N[C@H](CCC(=O)O)C(=O)N[C@H](C)C(=O)N[C@H](Cc1ccccc1)C(N)=O)C(C)C
Cmax (statin-treated high-risk CHD women, plasma; oral, 500 mg daily, day 1, 0 to 2 h, mean, all subjects): 178 ng/mL

Cc1cc(O)cc(O)c1C(=O)c1c2c3c(c(O)cc(C)c3oc1=O)C(=O)c1c(O)cc(O)cc1-2
PCE/NCE ratio (mouse, bone marrow; intraperitoneal, 100 mg/kg, 30 h): 1.01 ± 0.05

COc1cc2c(cc1OC)CN(CCCCn1ccc3cc(OCC[18F])ccc31)C2
tracer uptake (male CD-1 mouse, bone; intravenous, 280 kBq, 30 min): 5.11 %ID/g

CCOc1c(C(C)(C)O)sc2cnc(Nc3ccc(N4CCC(N5CC6(COC6)C5)CC4)cc3OC)nc12
APD50 change (New Zealand rabbit, male, isolated Purkinje fibres; 30 µM, 45 min, pacing 1 Hz): -14 ± 5%

NCC(=O)N1CCC[C@H]1C(=O)N1C[C@H](O)C[C@H]1C(=O)O
pKa2 (potentiometric titration; water; 25 °C, 0.15 mol/dm3 NaCl): 3.53

O=C(Cn1c(=O)c(Cc2ccccc2)nc2ccccc21)NCCOCCO
safe concentration (MTT; rat primary colonocytes, Albino rat, male; 72 h, concentration at 100% viability): 0.17 ± 0.002 µM

COc1cc(NC(C)=O)c2c(c1O)-c1c(OC)c(OC)cc3c1C(C2)N(C)CC3 (stereo not shown)
remaining compound (rat, plasma; 50 µg/mL, 4 h, room temperature, short-term storage): 102 ± 4.1%

NC12CNCCNCC(NCc3ccc(CNC(=O)CCCC(=O)NCc4ccc(-c5nncnn5)cc4)cc3)(CNCCNC1)CNCCNC2.[64Cu+2]
mean absorbed dose (OLINDA dosimetry; osteogenic cells; pretargeting, 120-h interval): 0.0719 rad/mCi

O=c1ccn([C@@H]2O[C@H](CO)[C@@H](O)[C@H]2F)c(=O)[nH]1
metabolic stability (human liver S9; 10 µM, 1 h, 37 °C): stable
